Measurements pooled from the literature.
Lines come from different studies, so protocols differ.

C[C@H]1CNCCCN1S(=O)(=O)c1cccc2cncc(F)c12
subjects with punctate keratitis (healthy adult men; ocular, 1 drop per eye twice daily, 8 days, adverse event): 16.7%

CC[C@H](C)[C@H](NC(=O)[C@H](Cc1ccccc1)NC(=O)[C@H](CCC(=O)O)NC(=O)[C@H](CCCCNC(=O)COCCOCCNC(=O)COCCOCCNC(=O)CC[C@H](NC(=O)CCCCCCCCCCCCCCCCC(=O)O)C(=O)O)NC(=O)[C@H](C)NC(=O)[C@H](C)NC(=O)[C@H](CCC(N)=O)NC(=O)CNC(=O)[C@H](CCC(=O)O)NC(=O)[C@H](CC(C)C)NC(=O)[C@H](Cc1ccc(O)cc1)NC(=O)[C@H](CO)NC(=O)[C@H](CO)NC(=O)[C@@H](NC(=O)[C@H](CC(=O)O)NC(=O)[C@H](CO)NC(=O)[C@@H](NC(=O)[C@H](Cc1ccccc1)NC(=O)[C@@H](NC(=O)CNC(=O)[C@H](CCC(=O)O)NC(=O)C(C)(C)NC(=O)[C@@H](N)Cc1cnc[nH]1)[C@@H](C)O)[C@@H](C)O)C(C)C)C(=O)N[C@@H](C)C(=O)N[C@@H](Cc1c[nH]c2ccccc12)C(=O)N[C@@H](CC(C)C)C(=O)N[C@H](C(=O)N[C@@H](CCCNC(=N)N)C(=O)NCC(=O)N[C@@H](CCCNC(=N)N)C(=O)NCC(=O)O)C(C)C
subjects with adverse events (Japanese subjects; 0.5 mg, mild adverse events): 62.5%

Cc1c(Cl)c(C)[n+]([O-])c(Cl)c1-c1noc(-c2cc(O)c(O)c([N+](=O)[O-])c2)n1
subjects with any serious TEAE (healthy Chinese subjects; oral, 50 mg, 10 days): 0%

O=C(Nc1cnccc1Cl)N1CCN(Cc2ccc3c(c2)OC(F)(F)O3)CC1
subjects with adverse events (multiple ascending dose; young men; 25 mg, at least 1 treatment-emergent event): 83.3%

Cn1cc(Nc2nc(N)nc(-c3cccc(-n4ccc5cc(C6CC6)cc(F)c5c4=O)c3CO)n2)cn1
subjects with vomiting (healthy subjects; oral, 300 mg tablet, fasted): 0%

COc1c(N2C[C@@H]3CCCN[C@@H]3C2)c(F)cc2c(=O)c(C(=O)O)cn(C3CC3)c12
subjects with upper abdominal pain (healthy volunteers; 400 mg): 1%

C=CC(=O)NC1CCN(c2ncc3ncnc(Nc4ccc(Oc5ccc6c(c5)ncn6C)c(C)c4)c3n2)CC1
subjects with drug-related diarrhoea (healthy male volunteers; intravenous then oral, dose not given): 14%

NCCONC(=O)[C@@H]1CC[C@@H]2CN1C(=O)N2OS(=O)(=O)O
subjects with TEAEs (healthy Chinese male subjects; intravenous, 2 g): 62.5%

O=C(O)CCC(=O)O.[2H]C([2H])([2H])Oc1cc(C)c2[nH]ccc2c1CN1CC[C@@H](C2CC2)C[C@H]1c1ccc(C(=O)O)cc1
subjects with elevated cholesterol TEAE (multiple ascending dose; healthy Chinese subjects; 200 mg once daily): 12.5%

A few entries again:
Cn1cc(Nc2nc(N)nc(-c3cccc(-n4ccc5cc(C6CC6)cc(F)c5c4=O)c3CO)n2)cn1
subjects with vomiting (healthy subjects; oral, 300 mg tablet, fasted): 0%
